Assay results of several laboratories.
Every numbered part comes from another study and shows a few of its results, in no order.
Sequence of UniProt P07949 (whole entry, unmodified, looked up): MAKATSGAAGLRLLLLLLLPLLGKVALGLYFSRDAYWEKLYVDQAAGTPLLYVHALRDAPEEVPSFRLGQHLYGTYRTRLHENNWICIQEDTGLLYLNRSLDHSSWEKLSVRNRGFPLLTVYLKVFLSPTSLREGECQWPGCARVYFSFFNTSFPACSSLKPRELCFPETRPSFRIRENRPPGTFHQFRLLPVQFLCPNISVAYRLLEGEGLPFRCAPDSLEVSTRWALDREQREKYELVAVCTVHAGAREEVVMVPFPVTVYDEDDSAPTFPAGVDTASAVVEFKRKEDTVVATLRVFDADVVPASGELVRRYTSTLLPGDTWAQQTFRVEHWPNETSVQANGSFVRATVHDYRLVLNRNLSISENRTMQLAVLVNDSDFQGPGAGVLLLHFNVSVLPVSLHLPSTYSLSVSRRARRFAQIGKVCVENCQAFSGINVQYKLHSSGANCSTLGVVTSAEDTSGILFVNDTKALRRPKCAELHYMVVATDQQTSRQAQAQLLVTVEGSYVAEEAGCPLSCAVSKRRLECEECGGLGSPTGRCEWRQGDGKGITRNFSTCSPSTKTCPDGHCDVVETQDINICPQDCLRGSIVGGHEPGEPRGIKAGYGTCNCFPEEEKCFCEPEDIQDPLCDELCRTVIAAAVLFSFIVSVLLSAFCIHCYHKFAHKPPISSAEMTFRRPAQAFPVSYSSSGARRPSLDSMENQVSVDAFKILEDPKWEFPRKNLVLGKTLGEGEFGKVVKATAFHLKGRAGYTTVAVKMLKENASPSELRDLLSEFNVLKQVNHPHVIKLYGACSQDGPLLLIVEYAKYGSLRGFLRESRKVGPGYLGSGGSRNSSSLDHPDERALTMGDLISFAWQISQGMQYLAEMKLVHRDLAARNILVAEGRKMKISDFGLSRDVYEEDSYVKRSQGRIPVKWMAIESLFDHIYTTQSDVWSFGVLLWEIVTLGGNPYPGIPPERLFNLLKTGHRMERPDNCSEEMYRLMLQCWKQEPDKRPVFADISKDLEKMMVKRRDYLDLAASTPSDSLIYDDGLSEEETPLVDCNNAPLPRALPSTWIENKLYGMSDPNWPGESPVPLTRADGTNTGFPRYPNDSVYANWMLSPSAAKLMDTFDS
Sequence of UniProt Q9H4B4 (whole entry, looked up): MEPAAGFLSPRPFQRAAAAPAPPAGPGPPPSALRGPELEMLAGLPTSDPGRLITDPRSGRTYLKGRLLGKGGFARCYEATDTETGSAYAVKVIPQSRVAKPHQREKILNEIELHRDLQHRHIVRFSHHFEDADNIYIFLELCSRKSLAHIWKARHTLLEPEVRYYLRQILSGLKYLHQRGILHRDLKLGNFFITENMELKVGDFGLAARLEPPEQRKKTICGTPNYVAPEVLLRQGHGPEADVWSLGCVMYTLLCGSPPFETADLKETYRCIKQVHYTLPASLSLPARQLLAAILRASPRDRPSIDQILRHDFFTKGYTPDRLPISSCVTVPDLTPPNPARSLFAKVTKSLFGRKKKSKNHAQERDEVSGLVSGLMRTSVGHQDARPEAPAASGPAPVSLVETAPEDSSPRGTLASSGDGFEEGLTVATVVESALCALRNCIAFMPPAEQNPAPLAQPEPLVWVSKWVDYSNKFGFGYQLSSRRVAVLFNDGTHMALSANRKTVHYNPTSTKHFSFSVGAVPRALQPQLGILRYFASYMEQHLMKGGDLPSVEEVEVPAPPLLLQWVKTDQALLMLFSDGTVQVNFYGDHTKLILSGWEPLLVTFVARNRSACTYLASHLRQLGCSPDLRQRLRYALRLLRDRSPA
Sequence of UniProt P53667 (whole entry, looked up): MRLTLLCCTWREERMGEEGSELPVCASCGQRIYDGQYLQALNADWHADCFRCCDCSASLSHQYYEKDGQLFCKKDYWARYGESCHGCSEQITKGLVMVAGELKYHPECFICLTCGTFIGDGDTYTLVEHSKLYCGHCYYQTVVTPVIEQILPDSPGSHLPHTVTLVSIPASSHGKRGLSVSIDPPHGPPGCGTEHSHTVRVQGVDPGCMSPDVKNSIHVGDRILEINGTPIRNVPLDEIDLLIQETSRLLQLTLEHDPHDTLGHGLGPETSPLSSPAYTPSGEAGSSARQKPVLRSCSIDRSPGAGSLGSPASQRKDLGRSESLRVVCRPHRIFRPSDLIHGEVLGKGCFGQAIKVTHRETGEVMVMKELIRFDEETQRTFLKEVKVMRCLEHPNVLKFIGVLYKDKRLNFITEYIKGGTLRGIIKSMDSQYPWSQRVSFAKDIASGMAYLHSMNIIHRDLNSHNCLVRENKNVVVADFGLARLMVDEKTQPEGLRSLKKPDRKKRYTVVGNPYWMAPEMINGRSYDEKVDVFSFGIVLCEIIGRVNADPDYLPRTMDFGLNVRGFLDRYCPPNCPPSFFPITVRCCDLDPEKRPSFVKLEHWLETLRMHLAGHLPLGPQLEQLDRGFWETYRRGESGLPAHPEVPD
Sequence of UniProt P11362 (whole entry, looked up): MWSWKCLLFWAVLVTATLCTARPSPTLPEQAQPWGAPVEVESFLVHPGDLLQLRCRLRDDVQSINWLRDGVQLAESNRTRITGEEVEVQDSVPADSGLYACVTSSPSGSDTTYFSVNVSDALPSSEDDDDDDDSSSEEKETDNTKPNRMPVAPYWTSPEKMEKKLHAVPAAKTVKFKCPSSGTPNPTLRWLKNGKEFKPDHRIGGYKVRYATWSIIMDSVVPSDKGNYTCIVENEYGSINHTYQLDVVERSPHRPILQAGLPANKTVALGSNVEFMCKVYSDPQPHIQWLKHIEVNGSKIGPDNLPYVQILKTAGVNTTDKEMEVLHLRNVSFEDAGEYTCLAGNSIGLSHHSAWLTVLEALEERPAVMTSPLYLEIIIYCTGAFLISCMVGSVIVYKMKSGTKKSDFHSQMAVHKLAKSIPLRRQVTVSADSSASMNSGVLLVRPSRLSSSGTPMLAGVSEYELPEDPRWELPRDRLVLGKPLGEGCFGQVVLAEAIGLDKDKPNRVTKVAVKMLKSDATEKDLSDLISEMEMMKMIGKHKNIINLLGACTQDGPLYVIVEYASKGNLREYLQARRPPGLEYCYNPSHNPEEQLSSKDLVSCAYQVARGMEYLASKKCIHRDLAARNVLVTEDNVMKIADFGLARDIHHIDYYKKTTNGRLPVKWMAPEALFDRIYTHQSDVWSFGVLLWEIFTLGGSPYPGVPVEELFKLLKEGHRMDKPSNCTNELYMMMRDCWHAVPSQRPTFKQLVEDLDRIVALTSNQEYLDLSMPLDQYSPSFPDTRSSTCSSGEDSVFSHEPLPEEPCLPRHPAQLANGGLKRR
Sequence of UniProt P19525 (whole entry, looked up): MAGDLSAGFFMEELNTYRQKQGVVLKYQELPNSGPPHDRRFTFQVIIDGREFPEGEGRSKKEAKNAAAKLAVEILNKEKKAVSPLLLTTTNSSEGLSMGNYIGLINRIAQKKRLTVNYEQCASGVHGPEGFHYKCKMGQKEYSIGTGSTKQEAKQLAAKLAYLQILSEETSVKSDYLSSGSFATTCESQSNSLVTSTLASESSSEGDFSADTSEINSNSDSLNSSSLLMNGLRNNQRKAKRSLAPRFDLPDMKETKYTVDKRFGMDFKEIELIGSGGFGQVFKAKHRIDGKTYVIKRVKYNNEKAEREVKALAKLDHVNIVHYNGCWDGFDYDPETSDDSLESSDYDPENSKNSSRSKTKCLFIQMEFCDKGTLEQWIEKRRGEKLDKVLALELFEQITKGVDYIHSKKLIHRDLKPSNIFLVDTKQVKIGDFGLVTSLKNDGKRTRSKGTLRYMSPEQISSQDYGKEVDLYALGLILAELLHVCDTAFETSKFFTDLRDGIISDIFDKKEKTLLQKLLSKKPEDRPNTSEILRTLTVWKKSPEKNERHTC
Sequence of UniProt Q9NWZ3 (whole entry, looked up): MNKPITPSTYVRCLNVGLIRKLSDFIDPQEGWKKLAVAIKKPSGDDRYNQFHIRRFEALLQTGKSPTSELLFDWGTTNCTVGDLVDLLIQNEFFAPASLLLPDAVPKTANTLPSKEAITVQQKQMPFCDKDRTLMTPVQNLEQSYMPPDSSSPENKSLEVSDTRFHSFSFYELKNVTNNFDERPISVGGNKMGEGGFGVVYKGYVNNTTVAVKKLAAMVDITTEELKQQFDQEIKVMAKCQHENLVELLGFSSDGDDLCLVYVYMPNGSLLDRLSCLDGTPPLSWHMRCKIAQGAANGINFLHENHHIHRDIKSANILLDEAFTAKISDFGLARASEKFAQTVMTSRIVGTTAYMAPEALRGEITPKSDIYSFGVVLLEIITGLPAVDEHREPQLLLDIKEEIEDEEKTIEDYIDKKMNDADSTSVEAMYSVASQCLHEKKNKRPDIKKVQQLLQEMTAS

Block 1 — cell line: U-87 MG; tested at: concentration not given; reference: DMSO
Compound: CCN1/C(=C/C=C2\CCCC(/C=C/C3=[N+](CC)c4ccccc4C3(C)C)=C2NCCCCCCCCN2CCC(Nc3nc4ccccc4n3Cc3ccc(F)cc3)CC2)C(C)(C)c2ccccc21
| test | log2 fold change |
| --- | --- |
| item: HYAL2 mRNA | -0.872 |
| item: CKLF mRNA | -1.22 |
| item: MXD3 mRNA | -2.12 |
| item: AHNAK mRNA | -1.22 |
| item: NFXL1 mRNA | 0.966 |
| item: PPP3CC mRNA | 0.807 |
| item: CLEC20A mRNA | -2.27 |
| item: CPLX3 mRNA | 4.53 |
| item: CCR1 mRNA | -4.06 |
| item: SWI5 mRNA | 0.818 |
| item: IQCB1 mRNA | 0.907 |
| item: ACAP3 mRNA | -1.05 |
| item: SUMO3 mRNA | -0.82 |
| item: CXCL2 mRNA | 2.51 |
| item: TMCC3 mRNA | 2.42 |
| item: UBA7 mRNA | -1.31 |

Block 2 — tested at: 1 µM
Compound: CC[C@@]1(c2ccccc2)C2=C(CC(C)(C)CC2=O)Nc2n[nH]cc21
| target | test | scale | remaining binding |
| --- | --- | --- | --- |
| PIP5K1C (Homo sapiens, UniProt O60331) | binding, competition with immobilised ligand |  | 65% |
| Mast/stem cell growth factor receptor Kit, autoinhibited (KIT, Homo sapiens, UniProt P10721) | binding, competition with immobilised ligand |  | 95% |
| MET (Homo sapiens, UniProt P08581, Y1235D) | binding, competition with immobilised ligand |  | 100% |
| Ribosomal protein S6 kinase alpha-1, C-terminal kinase domain (RPS6KA1, Homo sapiens, UniProt Q15418) | kinase binding, KINOMEscan | reference: DMSO control | 85% |
| PLK3 (Homo sapiens, UniProt Q9H4B4) | kinase binding, KINOMEscan | reference: DMSO control | 100% |
| DAPK1 (Homo sapiens, UniProt P53355) | kinase binding, KINOMEscan | reference: DMSO control | 68% |
| PTK2B (Homo sapiens, UniProt Q14289) | binding, competition with immobilised ligand |  | 100% |
| NEK9 (Homo sapiens, UniProt Q8TD19) | kinase binding, KINOMEscan | reference: DMSO control | 100% |
| PTK6 (Homo sapiens, UniProt Q13882) | binding, competition with immobilised ligand |  | 97% |
| IRAK4 (Homo sapiens, UniProt Q9NWZ3) | binding, competition with immobilised ligand |  | 98% |
| MAP3K1 (Homo sapiens, UniProt Q13233) | kinase binding, KINOMEscan | reference: DMSO control | 100% |
| MINK1 (Homo sapiens, UniProt Q8N4C8) | binding, competition with immobilised ligand |  | 86% |
| EGFR (Homo sapiens, UniProt P00533, del747-750/T751S) | kinase binding, KINOMEscan | reference: DMSO control | 88% |
| FLT1 (Homo sapiens, UniProt P17948) | binding, competition with immobilised ligand |  | 99% |
| FGFR1 (Homo sapiens, UniProt P11362) | binding, competition with immobilised ligand |  | 93% |
| PIK3CA (Homo sapiens, UniProt P42336, H1047L) | binding, competition with immobilised ligand |  | 100% |
| EPHA6 (Homo sapiens, UniProt Q9UF33) | kinase binding, KINOMEscan | reference: DMSO control | 100% |
| EIF2AK2 (Homo sapiens, UniProt P19525) | binding, competition with immobilised ligand |  | 83% |
| STK32A (Homo sapiens, UniProt Q8WU08) | kinase binding, KINOMEscan | reference: DMSO control | 100% |
| CDK16 (Homo sapiens, UniProt Q00536) | kinase binding, KINOMEscan | reference: DMSO control | 100% |
| LIM domain kinase 1 (LIMK1, Homo sapiens, UniProt P53667) | kinase binding, KINOMEscan | reference: DMSO control | 89% |
| LIM domain kinase 2 (LIMK2, Homo sapiens, UniProt P53671) | binding, competition with immobilised ligand |  | 98% |
| RET (Homo sapiens, UniProt P07949, V804L) | binding, competition with immobilised ligand |  | 100% |

Block 3 — organism: Leishmania donovani; observed: parasite growth; method: resazurin; notes: promastigote
| SMILES | IC50 |
| --- | --- |
| COC(=O)c1ccc(Nc2c3c(nc4ccccc24)CCC3)cc1 | 5.41 µM |
| COc1ccc(Nc2c3c(nc4ccccc24)CCC3)cc1 | 3.34 µM |
| Cc1ccc(Nc2c3c(nc4ccccc24)CCC3)cc1 | 5.49 µM |
| COc1cc(Nc2c3c(nc4ccccc24)CCC3)cc(OC)c1OC | 2.14 µM |
| CC(=O)c1cccc(Nc2c3c(nc4ccccc24)CCC3)c1 | 3.52 µM |
| COc1ccccc1Nc1c2c(nc3ccccc13)CCC2 | 4.12 µM |
| CCOC(=O)c1ccc(Nc2c3c(nc4ccccc24)CCC3)cc1 | 6.87 µM |

Block 4 — mode: degrader; method: automated immunoblot; cell line: HCC1569
Compound: Cc1ccc(O)c(C)c1-c1cnc2[nH]c(-c3cnc(N)nc3)cc2c1C#N
Target: Membrane-associated tyrosine- and threonine-specific cdc2-inhibitory kinase (PKMYT1, Homo sapiens, UniProt Q99640)
Sequence of UniProt Q99640 (whole entry, looked up): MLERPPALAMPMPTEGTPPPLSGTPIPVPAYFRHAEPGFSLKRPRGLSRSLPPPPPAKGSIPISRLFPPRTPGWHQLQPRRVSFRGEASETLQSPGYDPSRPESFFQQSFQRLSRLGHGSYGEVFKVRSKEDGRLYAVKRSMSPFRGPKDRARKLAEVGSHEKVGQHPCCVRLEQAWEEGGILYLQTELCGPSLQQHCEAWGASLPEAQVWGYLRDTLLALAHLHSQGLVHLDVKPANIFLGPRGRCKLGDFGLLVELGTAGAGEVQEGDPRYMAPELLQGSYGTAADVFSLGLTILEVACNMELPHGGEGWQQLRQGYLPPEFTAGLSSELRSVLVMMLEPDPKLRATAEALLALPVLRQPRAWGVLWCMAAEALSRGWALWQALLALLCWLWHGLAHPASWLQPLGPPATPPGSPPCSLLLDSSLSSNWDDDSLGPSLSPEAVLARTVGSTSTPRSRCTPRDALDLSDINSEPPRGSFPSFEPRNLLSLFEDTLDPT
| setting | degradation [%] |
| --- | --- |
| 0.02 nM | 5.39 |
| 0.05 nM | -2.37 |
| 1000 nM | -26.7 |
| 0.46 nM | 1.66 |
| 0.15 nM | -1.32 |
| 1.37 nM | -7.31 |
| 4.12 nM | -12.3 |
| 111.11 nM | -32.5 |

Excerpt of the above (block 1):
| test | log2 fold change |
| --- | --- |
| item: CCR1 mRNA | -4.06 |
| item: SWI5 mRNA | 0.818 |
| item: IQCB1 mRNA | 0.907 |
| item: ACAP3 mRNA | -1.05 |
| item: SUMO3 mRNA | -0.82 |
| item: CXCL2 mRNA | 2.51 |
